Experimental data gathered from unrelated publications.
Each line is one published result; not all experiments were run side by side. ± gives the spread as reported.

Structure (SMILES) | system | setting | AUC(0-tau)
O=c1[nH]c(=O)c(Cc2cccc(C(F)(F)F)c2)c([C@H]2CC[C@H](c3ccccc3)CC2)[nH]1 | human, plasma | oral, 150 mg once daily, day 7, geometric mean | 1730 ng·h/mL
Cc1cc(C)c2c(c1)[C@@H](N(Cc1cc(C(F)(F)F)cc(C(F)(F)F)c1)c1nnn(C)n1)CCCN2C[C@H]1CC[C@H](C(=O)O)CC1 | healthy humans, plasma | oral, 130 mg once daily, day 22, geometric mean, together with: gemfibrozil 600 mg twice daily | 11400 ng·h/mL
Cc1nc(-c2ccc(OCC(C)C)c(C#N)c2)sc1C(=O)O | human, plasma | oral, dose not given, day 7, geometric mean, together with: verinurad | 7910 ng·h/mL
C=C(C)[C@@H]1CC[C@]2(NCCN3CCS(=O)(=O)CC3)CC[C@]3(C)[C@H](CC[C@@H]4[C@@]5(C)CC=C(C6=CC[C@@](CF)(C(=O)O)CC6)C(C)(C)[C@@H]5CC[C@]43C)[C@@H]12 | human, plasma | oral, 200 mg once daily, day 14 | 21500 ng·h/mL
COc1cc(Nc2ncc3c(n2)-c2ccc(Cl)cc2C(c2c(F)cccc2OC)=NC3)ccc1C(=O)O | human, plasma | oral, 60 mg twice daily, day 7, steady state | 28.7 µM·h
COc1ccc(-c2c(Nc3ccccn3)[nH]c3c(C4=CCCCC4)c(-c4ccccc4)nn3c2=O)cc1 | human, plasma | oral, 400 mg once daily, cycle 1 day 15, multiple dosing, geometric mean, tau 24 h | 57300 ng·h/mL
COCCCCn1c(C(=O)N(CC(C)C)[C@@H]2CNC[C@H](C(=O)N3CCOCC3)C2)nc2ccccc21 | non-elderly human, plasma | oral, 160 mg once daily, day 1 | 8010 ng·h/mL
CC(C)(C)OC[C@@H]1C(=O)NCCN1C(=O)C[C@H](N)Cc1cc(F)c(F)cc1F | human | 10 mg once daily, steady state, day 10 | 162 ± 31.8 ng·h/mL
C=C(C)[C@@H]1CC[C@]2(NCCN3CCS(=O)(=O)CC3)CC[C@]3(C)[C@H](CC[C@@H]4[C@@]5(C)CC=C(C6=CC[C@@](CF)(C(=O)O)CC6)C(C)(C)[C@@H]5CC[C@]43C)[C@@H]12 | human, HIV-1 treatment-naive, plasma | oral, 10 mg once daily, day 8 | 910 ng·h/mL
Nc1ccn([C@@H]2O[C@H](CO)[C@@H](O)C2(F)F)c(=O)n1 | human, plasma | intravenous, 1000 mg/m2, cycle 1 day 1, together with: lonafarnib 100 mg twice daily | 5080 ng·h/mL

For quick reference, copied from above:
Structure (SMILES) | system | setting | AUC(0-tau)
Cc1nc(-c2ccc(OCC(C)C)c(C#N)c2)sc1C(=O)O | human, plasma | oral, dose not given, day 7, geometric mean, together with: verinurad | 7910 ng·h/mL
CC(C)(C)OC[C@@H]1C(=O)NCCN1C(=O)C[C@H](N)Cc1cc(F)c(F)cc1F | human | 10 mg once daily, steady state, day 10 | 162 ± 31.8 ng·h/mL
